Literature values as cited in several papers.
Lines come from different studies, so protocols differ. ± gives the spread as reported.
HDAC6: Protein deacetylase HDAC6 (HDAC6, Homo sapiens, UniProt Q9UBN7)
Chain of UniProt Q9UBN7 (whole entry, looked up): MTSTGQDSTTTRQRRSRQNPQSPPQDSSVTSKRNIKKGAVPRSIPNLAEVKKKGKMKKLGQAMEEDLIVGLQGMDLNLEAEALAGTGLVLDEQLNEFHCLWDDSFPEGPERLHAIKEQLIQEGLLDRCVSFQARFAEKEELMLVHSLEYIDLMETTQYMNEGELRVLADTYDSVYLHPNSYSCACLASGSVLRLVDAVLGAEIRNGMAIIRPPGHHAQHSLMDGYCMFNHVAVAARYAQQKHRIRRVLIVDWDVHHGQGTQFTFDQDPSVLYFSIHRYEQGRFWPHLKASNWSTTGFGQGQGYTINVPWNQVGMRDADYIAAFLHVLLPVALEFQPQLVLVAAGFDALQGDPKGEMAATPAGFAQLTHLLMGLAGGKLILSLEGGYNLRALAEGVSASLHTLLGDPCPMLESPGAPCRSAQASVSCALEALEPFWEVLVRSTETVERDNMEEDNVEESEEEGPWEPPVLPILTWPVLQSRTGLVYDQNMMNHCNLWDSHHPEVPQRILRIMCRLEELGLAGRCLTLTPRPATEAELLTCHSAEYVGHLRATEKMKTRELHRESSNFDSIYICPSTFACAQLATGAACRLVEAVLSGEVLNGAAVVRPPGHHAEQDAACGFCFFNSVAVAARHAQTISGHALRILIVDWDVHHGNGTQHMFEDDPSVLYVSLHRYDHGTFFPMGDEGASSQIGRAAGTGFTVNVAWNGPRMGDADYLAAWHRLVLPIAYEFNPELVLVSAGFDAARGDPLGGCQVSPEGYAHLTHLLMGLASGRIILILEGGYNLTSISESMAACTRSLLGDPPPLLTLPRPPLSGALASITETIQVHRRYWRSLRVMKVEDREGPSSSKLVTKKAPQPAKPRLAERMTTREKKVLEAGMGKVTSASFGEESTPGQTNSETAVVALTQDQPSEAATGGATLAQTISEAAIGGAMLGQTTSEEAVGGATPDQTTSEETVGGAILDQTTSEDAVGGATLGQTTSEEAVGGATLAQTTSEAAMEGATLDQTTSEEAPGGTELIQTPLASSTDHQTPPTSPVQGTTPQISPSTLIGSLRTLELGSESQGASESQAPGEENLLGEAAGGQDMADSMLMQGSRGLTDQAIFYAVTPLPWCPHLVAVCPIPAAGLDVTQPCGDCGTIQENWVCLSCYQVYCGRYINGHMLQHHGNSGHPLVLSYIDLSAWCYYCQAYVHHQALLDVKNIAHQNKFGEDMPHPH
BCHE: Cholinesterase (BCHE, Equus caballus, UniProt P81908)
Chain of UniProt P81908 (whole entry, looked up): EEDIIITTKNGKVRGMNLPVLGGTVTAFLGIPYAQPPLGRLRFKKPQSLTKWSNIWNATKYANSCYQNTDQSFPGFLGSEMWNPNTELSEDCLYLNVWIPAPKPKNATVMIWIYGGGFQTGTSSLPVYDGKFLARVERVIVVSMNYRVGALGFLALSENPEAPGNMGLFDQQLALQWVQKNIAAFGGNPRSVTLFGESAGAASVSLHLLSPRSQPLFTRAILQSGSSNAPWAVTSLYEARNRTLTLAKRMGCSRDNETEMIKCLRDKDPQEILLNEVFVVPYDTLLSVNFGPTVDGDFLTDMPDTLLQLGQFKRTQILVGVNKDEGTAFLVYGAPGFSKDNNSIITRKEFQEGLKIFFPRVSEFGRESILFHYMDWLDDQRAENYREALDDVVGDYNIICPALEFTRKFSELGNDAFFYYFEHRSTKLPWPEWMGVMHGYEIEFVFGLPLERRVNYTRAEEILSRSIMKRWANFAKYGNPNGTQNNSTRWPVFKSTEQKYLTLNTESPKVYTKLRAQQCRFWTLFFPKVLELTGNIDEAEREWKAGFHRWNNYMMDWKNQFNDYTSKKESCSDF
Chain of UniProt P41020 (whole entry, looked up): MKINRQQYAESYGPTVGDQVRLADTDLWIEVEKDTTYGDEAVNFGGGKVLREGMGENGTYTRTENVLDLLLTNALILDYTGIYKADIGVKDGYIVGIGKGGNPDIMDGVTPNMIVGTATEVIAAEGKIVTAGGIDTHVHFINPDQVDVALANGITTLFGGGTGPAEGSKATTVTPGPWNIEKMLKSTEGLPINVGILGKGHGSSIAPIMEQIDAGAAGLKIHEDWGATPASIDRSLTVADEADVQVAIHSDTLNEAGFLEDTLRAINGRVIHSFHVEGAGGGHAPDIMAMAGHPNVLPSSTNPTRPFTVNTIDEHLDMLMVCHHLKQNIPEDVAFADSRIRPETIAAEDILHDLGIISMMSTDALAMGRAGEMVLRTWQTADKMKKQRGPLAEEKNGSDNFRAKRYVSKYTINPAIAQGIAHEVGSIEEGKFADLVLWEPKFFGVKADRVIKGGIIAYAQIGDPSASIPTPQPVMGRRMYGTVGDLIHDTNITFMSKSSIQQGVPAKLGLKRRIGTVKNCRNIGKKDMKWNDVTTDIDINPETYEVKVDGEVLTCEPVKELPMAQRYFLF
Chain of UniProt Q9BY41 (whole entry, looked up): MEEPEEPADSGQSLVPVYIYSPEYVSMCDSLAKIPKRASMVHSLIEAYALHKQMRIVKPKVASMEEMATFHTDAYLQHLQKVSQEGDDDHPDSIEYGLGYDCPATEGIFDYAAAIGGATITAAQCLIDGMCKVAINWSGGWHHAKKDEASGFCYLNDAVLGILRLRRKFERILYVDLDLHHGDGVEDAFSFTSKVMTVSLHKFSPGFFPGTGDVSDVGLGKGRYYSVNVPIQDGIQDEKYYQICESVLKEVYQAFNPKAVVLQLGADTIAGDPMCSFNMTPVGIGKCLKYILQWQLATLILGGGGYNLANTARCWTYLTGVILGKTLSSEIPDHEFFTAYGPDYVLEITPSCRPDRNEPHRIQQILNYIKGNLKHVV
Chain of UniProt P21397 (whole entry, looked up): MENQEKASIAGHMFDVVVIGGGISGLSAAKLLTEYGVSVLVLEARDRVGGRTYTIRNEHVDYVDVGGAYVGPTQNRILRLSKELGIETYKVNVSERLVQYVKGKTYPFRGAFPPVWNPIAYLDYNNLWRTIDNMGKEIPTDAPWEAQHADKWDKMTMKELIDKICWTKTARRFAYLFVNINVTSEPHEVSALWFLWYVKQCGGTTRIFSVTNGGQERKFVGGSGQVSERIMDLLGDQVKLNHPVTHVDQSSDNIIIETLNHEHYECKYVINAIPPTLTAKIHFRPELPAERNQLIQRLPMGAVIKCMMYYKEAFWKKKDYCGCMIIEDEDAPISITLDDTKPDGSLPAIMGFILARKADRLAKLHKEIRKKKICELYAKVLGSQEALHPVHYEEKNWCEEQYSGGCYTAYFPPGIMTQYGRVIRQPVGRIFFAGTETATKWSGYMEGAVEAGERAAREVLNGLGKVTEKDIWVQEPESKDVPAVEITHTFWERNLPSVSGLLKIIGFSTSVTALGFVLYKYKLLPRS
Chain of UniProt P56817 (whole entry, looked up): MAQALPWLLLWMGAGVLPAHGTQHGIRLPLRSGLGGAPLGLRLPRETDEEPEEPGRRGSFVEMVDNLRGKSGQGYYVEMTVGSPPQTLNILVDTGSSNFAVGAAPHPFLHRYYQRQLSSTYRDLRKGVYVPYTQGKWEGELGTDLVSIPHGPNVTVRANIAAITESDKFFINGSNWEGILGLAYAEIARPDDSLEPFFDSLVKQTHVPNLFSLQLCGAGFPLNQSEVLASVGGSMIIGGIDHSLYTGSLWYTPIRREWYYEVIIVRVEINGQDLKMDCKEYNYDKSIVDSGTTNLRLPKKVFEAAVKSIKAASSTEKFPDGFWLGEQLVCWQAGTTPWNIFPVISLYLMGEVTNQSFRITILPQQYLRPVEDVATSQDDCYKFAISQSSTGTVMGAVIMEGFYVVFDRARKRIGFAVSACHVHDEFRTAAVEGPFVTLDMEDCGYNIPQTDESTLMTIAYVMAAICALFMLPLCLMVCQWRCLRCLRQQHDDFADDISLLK

| Compound | target | assay | test system | conditions | IC50 |
| --- | --- | --- | --- | --- | --- |
| O=C(CS)NCCCCCCn1ccc2cc(Cl)c(Cl)cc21 | HDAC6 | inhibitor |  |  | 64 nM |
| CN1CCC2(CC1)c1ccccc1N(Cc1ccc(C(=O)NO)cc1)C2c1cccc(Cl)c1 (stereo not drawn) | HDAC8 (Homo sapiens, UniProt Q9BY41) | inhibitor |  | with: Fluor-de-Lys substrate 50 µM | 3420 ± 1280 nM |
| CC1(C)CC(=O)C2=C(C1)N=c1sc(=Cc3ccc(OCCNCCc4c[nH]c5ccccc45)cc3)c(=O)n1C2c1c[nH]c2ccccc12 (stereo not drawn) | MAOA (Homo sapiens, UniProt P21397) | inhibitor |  |  | 1930 nM |
| CC(C)C[C@@H]1NC(=O)[C@H](Cc2ccc(O)cc2)NC(=O)[C@H](CC(N)=O)NC(=O)[C@H](CO)NC(=O)[C@@H](NC(=O)[C@@H]2CCCN2C(=O)[C@H](CC(N)=O)NC(=O)[C@H](Cc2ccc(O)cc2)NC(=O)[C@H](CCCCN)NC(=O)[C@H](CO)NC(=O)[C@H](C)NC(=O)[C@@H](N)CC(N)=O)CSC1=O | Accessory gene regulator protein C (Staphylococcus epidermidis, UniProt O86861) | agr reporter, antagonist | group-I reporter strain |  | 9.64 nM |
| Fc1ccc(-c2nnc(N3CCN(c4ccccn4)CC3)o2)c(F)c1 | BCHE |  |  |  | 787 ± 22 nM |
| O=C(CS)NCCCCCCn1ccc2cc(F)c(Cl)cc21 | HDAC6 | inhibitor |  |  | 65 nM |
| O=C(/C=C/c1ccc(O)cc1)c1c(O)cc(O)cc1O[C@@H]1O[C@H](O)[C@@H](O)C(O)[C@H]1O (stereo partly drawn) | acetylcholinesterase |  |  |  | 52 µg/mL |
| NC1CC1c1ccc(NC(=O)c2cccc(NC(=O)OCc3ccccc3)c2)cc1 (stereo not drawn) | Lysine-specific histone demethylase 1A, with CoREST (KDM1A, Homo sapiens, UniProt O60341) |  |  |  | 43 ± 10 nM |
| O=C(c1ccc(Br)cc1)[C@H]1[C@H](c2cn(-c3ccccc3)nc2-c2ccccc2)C2CC3CCCCC3N2[C@]12C(=O)Nc1ccc(Cl)cc12 (stereo partly drawn) | EGFR (Homo sapiens, UniProt P00533) | enzyme activity, inhibitor |  |  | 96.6 nM |
| CS(=O)(=O)Nc1ccc(-c2cncc(-c3cccc4[nH]ccc34)c2)cc1 | PIKFYVE (Homo sapiens, UniProt Q9Y2I7) |  |  |  | 10000 nM |
| COc1ccc2c(c1OC)CO/C(=C\c1cc[n+](Cc3ccc(F)cc3)cc1)C2=O | ACHE (Homo sapiens, UniProt P22303) | enzyme activity, inhibitor |  |  | 8.93 nM |
| CC/C(=C(\c1ccccc1)c1ccc(OCCN(C)C)cc1)c1ccccc1 | Phospholipase D1 (Homo sapiens, UniProt Q13393) |  |  |  | no effect |
| COc1cc(/C=C/c2nnc(-c3ccc(C(F)(F)F)cc3)o2)ccc1O | Beta-secretase 1 (BACE1, Homo sapiens, UniProt P56817) |  |  |  | 146 ± 12 nM |
| CN(CCCCCNc1c2c(nc3ccccc13)CCCC2)C1CCC(c2ccc(Cl)c(Cl)c2)c2ccccc21 (stereo not drawn) | BCHE | inhibitor |  |  | 174 nM |
| CN1CCC2(CC1)c1ccccc1N(Cc1ccc(C(=O)NO)cc1)C2c1ccc(Cl)cc1 (stereo not drawn) | Histone deacetylase 8 (Schistosoma mansoni, UniProt A5H660) | inhibitor |  | with: Fluor-de-Lys substrate 50 µM | 7710 ± 2210 nM |
| C=CC(=O)N1CCC[C@@H](n2nc(-c3cn(C)c4ccccc34)c3c(N)ncnc32)C1 | EGFR (Homo sapiens, UniProt P00533, L858R/T790M) |  |  |  | 2.5 ± 1.4 nM |
| O=c1cc(Cc2ccc(-c3ccccc3)cc2)c2cccnc2n1O | HIV-1 RNase H | inhibitor |  |  | 640 nM |
| C#CCNc1ccc(/C=C2\SC(=O)N(CN(C)CCC(Oc3ccc(C(F)(F)F)cc3)c3ccccc3)C2=O)cc1 (stereo not drawn) | MAOB (Homo sapiens, UniProt P27338) | inhibitor |  |  | 15 nM |
| O=C(CS)NCCCCCNc1cccc2cccnc12 | HDAC1 (Homo sapiens, UniProt Q13547) | inhibitor |  |  | 4700 nM |
| CN(C)C12CC3CC(CC(C1)c1ccccc13)O2 | NMDA receptor | inhibitor |  |  | 6000 nM |
| CC(C)(C)NC(=O)N(CCCCCCN1C[C@H](O)[C@@H](O)[C@H](O)[C@H]1CO)C1CCCCC1 | α-glucosidase (pig liver) | inhibitor |  |  | 27800 nM |
| Cc1cn(C2CCC(OC(C(=O)O)P(=O)(O)O)C2)c(=O)[nH]c1=O (racemic) | Gag-Pol polyprotein, reverse transcriptase (gag-pol, Human immunodeficiency virus type 1 group M subtype B, UniProt P04585) |  |  |  | 410 nM |
| CC(CCC(=O)O)C1CCC2C3CCC4CC(OC(=O)C(N)CC(=O)O)CCC4(C)C3CCC12C (stereo not drawn) | Sialyltransferase ST3Gal-I (Rattus norvegicus, UniProt Q6H8N0) | enzyme activity, inhibitor |  |  | 39000 ± 1000 nM |
| CNCP(C)(=O)O | Urease subunit alpha (Sporosarcina pasteurii, UniProt P41020) | enzyme activity, inhibitor |  |  | 60000 ± 300 nM |
